Results collected from several papers.
Every numbered part comes from another study and shows a few of its results, in no order. “And” joins repeats or separate records; there may be more than shown.
UniProt Q8NEV4, sequence (whole entry, looked up): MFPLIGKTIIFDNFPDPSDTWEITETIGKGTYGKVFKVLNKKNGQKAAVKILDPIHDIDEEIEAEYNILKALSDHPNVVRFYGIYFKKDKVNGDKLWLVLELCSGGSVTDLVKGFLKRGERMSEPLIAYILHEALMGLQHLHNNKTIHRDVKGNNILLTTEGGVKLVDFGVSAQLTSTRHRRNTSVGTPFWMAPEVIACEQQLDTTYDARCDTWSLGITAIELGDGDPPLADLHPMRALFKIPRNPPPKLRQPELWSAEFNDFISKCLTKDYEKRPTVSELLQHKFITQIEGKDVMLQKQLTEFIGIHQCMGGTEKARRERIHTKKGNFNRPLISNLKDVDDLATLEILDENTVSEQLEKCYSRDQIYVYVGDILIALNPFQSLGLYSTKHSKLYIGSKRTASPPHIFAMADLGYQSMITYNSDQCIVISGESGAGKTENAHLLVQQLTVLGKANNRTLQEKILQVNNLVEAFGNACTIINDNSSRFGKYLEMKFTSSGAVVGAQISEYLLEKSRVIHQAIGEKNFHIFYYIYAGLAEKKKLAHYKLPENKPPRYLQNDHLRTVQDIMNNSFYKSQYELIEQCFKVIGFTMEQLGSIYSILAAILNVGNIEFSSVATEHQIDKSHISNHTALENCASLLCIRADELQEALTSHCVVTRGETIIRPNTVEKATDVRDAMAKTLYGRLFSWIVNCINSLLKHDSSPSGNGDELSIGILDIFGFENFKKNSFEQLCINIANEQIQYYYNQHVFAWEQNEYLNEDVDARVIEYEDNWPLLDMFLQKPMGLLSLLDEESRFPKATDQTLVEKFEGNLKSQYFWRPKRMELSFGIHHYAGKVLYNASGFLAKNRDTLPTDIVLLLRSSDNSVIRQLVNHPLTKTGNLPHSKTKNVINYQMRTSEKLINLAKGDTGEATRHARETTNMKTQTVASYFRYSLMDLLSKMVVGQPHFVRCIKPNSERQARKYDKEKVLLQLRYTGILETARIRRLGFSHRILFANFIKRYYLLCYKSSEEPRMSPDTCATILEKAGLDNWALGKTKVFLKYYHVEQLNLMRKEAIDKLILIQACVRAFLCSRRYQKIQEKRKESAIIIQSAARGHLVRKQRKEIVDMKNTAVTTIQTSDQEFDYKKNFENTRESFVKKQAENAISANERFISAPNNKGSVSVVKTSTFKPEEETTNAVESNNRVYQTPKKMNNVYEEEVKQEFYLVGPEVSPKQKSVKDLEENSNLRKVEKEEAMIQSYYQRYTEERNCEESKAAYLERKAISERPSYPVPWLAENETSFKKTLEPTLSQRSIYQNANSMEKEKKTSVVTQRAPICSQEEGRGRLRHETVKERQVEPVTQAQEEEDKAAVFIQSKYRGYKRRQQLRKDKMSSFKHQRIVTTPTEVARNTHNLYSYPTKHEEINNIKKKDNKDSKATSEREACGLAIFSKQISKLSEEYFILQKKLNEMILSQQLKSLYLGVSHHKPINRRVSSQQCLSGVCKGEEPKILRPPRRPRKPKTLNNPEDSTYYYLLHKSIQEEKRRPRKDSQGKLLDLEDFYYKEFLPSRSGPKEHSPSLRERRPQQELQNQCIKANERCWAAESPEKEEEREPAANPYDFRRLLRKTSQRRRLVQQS
UniProt P57078, sequence (whole entry, looked up): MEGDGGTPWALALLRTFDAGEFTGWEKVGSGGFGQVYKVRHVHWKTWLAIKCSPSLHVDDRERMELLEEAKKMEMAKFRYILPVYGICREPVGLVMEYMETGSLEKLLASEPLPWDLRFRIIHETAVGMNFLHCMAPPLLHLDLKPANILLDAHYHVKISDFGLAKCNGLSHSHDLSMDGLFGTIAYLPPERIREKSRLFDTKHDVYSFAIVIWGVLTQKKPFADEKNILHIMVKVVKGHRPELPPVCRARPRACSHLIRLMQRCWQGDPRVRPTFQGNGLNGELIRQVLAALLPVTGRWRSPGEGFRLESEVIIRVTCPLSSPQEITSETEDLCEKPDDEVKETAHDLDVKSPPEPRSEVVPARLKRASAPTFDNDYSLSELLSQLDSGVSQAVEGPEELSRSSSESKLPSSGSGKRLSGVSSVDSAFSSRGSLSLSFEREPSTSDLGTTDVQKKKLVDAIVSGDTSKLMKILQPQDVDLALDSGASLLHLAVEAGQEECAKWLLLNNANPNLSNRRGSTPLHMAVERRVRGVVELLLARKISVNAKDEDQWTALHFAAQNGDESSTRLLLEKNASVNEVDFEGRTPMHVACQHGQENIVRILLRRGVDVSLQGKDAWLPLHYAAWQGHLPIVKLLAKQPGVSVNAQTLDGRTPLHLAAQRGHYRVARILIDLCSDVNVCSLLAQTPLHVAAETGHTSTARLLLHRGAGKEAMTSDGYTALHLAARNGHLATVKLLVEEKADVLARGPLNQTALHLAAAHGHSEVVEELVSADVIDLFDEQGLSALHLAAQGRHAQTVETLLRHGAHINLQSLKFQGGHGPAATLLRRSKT
UniProt P51812, sequence (whole entry, looked up): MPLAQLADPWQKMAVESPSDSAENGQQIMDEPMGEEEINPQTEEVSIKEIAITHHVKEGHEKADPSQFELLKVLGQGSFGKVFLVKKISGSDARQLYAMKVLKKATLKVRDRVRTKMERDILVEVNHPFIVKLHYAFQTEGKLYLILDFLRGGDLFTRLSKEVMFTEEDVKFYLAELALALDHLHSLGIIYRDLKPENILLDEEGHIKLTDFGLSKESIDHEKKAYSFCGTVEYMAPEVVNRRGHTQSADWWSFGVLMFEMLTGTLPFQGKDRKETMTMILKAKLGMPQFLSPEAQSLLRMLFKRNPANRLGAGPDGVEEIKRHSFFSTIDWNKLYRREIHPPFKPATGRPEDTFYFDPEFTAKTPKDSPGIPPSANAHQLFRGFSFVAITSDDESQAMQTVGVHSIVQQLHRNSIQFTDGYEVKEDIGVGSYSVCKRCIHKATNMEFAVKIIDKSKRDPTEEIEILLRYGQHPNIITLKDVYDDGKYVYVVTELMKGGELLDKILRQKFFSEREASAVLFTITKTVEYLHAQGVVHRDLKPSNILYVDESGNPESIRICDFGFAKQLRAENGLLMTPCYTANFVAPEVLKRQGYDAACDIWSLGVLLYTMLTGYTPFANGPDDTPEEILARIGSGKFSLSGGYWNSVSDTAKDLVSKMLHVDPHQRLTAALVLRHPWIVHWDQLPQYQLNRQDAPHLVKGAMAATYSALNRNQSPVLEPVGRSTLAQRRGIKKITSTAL
UniProt Q92772, sequence (whole entry, looked up): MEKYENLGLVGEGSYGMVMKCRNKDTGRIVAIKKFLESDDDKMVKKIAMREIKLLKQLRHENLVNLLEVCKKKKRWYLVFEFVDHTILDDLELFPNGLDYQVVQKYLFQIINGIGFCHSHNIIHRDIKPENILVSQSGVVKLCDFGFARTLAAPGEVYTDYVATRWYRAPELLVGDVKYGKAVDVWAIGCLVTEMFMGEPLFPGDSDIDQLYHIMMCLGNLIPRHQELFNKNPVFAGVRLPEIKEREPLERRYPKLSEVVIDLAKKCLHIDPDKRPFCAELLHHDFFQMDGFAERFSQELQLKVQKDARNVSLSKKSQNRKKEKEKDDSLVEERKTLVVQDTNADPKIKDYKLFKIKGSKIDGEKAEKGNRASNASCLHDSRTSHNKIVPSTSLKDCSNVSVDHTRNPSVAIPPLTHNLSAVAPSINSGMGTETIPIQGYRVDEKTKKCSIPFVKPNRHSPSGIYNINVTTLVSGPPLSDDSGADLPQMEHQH

Sample 1 — tested at: 1 µM
Compound: CNC(=O)Nc1ccc2c(c1)CC[C@@]21OC(=O)N(CC(=O)N(Cc2ccc(F)cc2)[C@@H](C)C(F)(F)F)C1=O
It gave 81% for remaining binding (Calcium/calmodulin-dependent protein kinase type II subunit beta (CAMK2B, Homo sapiens, UniProt Q13554); cell-free assay, competition with immobilised ligand).
The remaining binding was 91% (Serine/threonine-protein kinase Nek7 (NEK7, Homo sapiens, UniProt Q8TDX7); cell-free assay, competition with immobilised ligand).
The remaining binding was 95% (Proto-oncogene tyrosine-protein kinase receptor Ret (RET, Homo sapiens, UniProt P07949, M918T); cell-free assay, competition with immobilised ligand).
It gave 100% for remaining binding (Receptor tyrosine-protein kinase erbB-4 (ERBB4, Homo sapiens, UniProt Q15303); cell-free assay, competition with immobilised ligand).
For Cyclin-dependent kinase-like 2 (CDKL2, Homo sapiens, UniProt Q92772); binding, competition with immobilised ligand: remaining binding read 100%.
The remaining binding was 69% (Phosphatidylinositol 5-phosphate 4-kinase type-2 beta (PIP4K2B, Homo sapiens, UniProt P78356); cell-free assay, competition with immobilised ligand).
The remaining binding was 84% (Receptor-type tyrosine-protein kinase FLT3 (FLT3, Homo sapiens, UniProt P36888, ITD); cell-free assay, competition with immobilised ligand).
It gave 94% for remaining binding (Serine/threonine-protein kinase Nek4 (NEK4, Homo sapiens, UniProt P51957); cell-free assay, competition with immobilised ligand).
Receptor-interacting serine/threonine-protein kinase 4 (RIPK4, Homo sapiens, UniProt P57078); cell-free assay, competition with immobilised ligand — remaining binding: 56%.
The remaining binding was 100% (Receptor-type tyrosine-protein kinase FLT3 (FLT3, Homo sapiens, UniProt P36888, D835Y); cell-free assay, competition with immobilised ligand).
The remaining binding was 88% (Serine/threonine-protein kinase PAK 1 (PAK1, Homo sapiens, UniProt Q13153); cell-free assay, competition with immobilised ligand).
It gave 98% for remaining binding (Serine/threonine-protein kinase SIK1 (SIK1, Homo sapiens, UniProt P57059); competition binding).
For Ribosomal protein S6 kinase alpha-3, C-terminal kinase domain (RPS6KA3, Homo sapiens, UniProt P51812); cell-free assay, competition with immobilised ligand: remaining binding read 87%.
Vascular endothelial growth factor receptor 2 (KDR, Homo sapiens, UniProt P35968); cell-free assay, competition with immobilised ligand — remaining binding: 83%.
The remaining binding was 100% (Myosin-IIIa (MYO3A, Homo sapiens, UniProt Q8NEV4); binding, competition with immobilised ligand).

Sample 2 — species: mouse; medium: microsomes or S9; tested at: 2 µM; time: 0.5 h
For Cc1nn2c(-c3ccccc3)c(C#N)nnc2c1-c1ccccc1, the remaining compound was 75%.
CC1(C)Oc2ccc(C#N)cc2[C@@H](NC(=O)c2ccc(F)cc2)[C@@H]1O has a remaining compound of 69.3%.
The remaining compound of O=S(=O)(Nc1ccc(N2CCOCC2)cc1)c1ccc(-c2nnc(C3CCC3)o2)o1 is reported as 3.09%.
Cc1ccc(OC(C)C)c(CN(CCO)CCO)c1 has a remaining compound of 58.7%.
Cc1cc(C(=O)NCCS(=O)(=O)N(C)C)cnc1C has a remaining compound of 88.6%.
With Cc1c(S(=O)(=O)N2CCN(CC(=O)NCc3ccccc3)S(=O)(=O)CC2)sc2ccc(Cl)cc12 the remaining compound was 2.86%.
The remaining compound of CC(C)CN(CCNS(=O)(=O)c1ccc(-c2ccc(=O)[nH]n2)s1)CC(C)C is reported as 0.0738%.
The remaining compound of O=c1cccc2n1CC1CC(C2)N(c2nc(N3CCCCC3)nc(N3CCCCC3)n2)C1 (stereo not shown) is reported as 5.89%.
With COC(=O)[C@@H](OC(C)(C)C)c1c(C)nc2c(c1Cl)CCN(Cc1ccc(OC)cc1)C2=O the remaining compound was 0.0764%.
Cn1c(N)c(C(=O)Cn2cc(C(F)(F)F)cc(Cl)c2=O)c(=O)n(C)c1=O gave a remaining compound of 79.8%.

Sample 3 — read-out: enzyme activity; action: inhibitor; tested at: 0.5 µM; baseline: control
Target: Insulin receptor-related protein (INSRR, Homo sapiens, UniProt P14616)
UniProt P14616, sequence (whole entry, looked up): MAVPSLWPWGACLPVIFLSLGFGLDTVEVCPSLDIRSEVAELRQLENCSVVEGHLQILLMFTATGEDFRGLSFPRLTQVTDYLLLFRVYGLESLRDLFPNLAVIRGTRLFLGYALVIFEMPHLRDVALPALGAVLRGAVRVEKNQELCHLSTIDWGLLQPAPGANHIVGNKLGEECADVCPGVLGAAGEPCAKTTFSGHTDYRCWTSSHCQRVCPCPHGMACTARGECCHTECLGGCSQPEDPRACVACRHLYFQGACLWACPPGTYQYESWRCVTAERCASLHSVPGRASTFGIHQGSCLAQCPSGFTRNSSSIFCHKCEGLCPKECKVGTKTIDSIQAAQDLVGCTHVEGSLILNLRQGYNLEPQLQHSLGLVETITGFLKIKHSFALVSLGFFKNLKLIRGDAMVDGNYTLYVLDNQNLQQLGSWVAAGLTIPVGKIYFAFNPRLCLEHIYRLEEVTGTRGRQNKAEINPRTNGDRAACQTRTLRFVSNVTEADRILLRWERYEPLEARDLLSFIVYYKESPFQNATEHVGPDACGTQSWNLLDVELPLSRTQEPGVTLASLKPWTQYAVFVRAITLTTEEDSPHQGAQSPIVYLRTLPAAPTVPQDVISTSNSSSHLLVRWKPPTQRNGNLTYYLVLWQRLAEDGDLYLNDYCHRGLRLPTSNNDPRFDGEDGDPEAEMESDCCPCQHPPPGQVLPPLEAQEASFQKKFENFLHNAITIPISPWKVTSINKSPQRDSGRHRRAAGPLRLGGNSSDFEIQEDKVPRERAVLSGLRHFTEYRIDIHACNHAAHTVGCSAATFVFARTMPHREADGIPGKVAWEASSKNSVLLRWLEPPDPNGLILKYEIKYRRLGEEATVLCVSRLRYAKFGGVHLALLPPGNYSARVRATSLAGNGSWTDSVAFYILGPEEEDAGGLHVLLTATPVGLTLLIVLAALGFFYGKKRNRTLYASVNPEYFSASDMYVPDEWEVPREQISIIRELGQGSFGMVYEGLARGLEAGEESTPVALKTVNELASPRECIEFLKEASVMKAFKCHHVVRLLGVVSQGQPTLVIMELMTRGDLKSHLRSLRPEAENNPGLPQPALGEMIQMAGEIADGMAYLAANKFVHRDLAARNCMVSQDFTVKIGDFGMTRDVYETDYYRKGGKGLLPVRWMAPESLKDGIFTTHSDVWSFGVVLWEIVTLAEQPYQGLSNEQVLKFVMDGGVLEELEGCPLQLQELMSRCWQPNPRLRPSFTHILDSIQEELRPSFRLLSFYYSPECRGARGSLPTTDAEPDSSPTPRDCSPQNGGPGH
For O=C(Nc1cccc(Nc2cc(Nc3cccc(C(F)(F)F)c3)ncn2)c1)C1CC1, the remaining activity was 101%.
O=C(O)c1ccc2c3c1cccc3c(=O)n1c3ccccc3nc21 has a remaining activity of 101%.
N#CC(C#N)=C(N)/C(C#N)=C/c1ccc(O)cc1 has a remaining activity of 99.9%.
With Cc1ccc(NC(=O)c2ccc(CN3CCN(C)CC3)cc2)cc1Nc1nc(-c2cccnc2)cs1 the remaining activity was 102%.
CC(C)[C@H](CO)Nc1nc(Nc2cc(N)cc(Cl)c2)c2ncn(C(C)C)c2n1 gave a remaining activity of 70.8%.
With O=S(=O)(c1cccc2cnccc12)N1CCCNCC1 the remaining activity was 99.7%.
The remaining activity of NCCNc1ncc(C(N)=O)c(Nc2cccc(C(F)(F)F)c2)n1 is reported as 86.4%.
Cc1nc(-c2ccccc2)c(-c2ccncc2)o1 gave a remaining activity of 101%.
The remaining activity of O=C1NC(=O)C(c2cn(CCCO)c3ncccc23)=C1c1cnccn1 is reported as 93.2%.
COc1ccc(OC)c2c(=S)c3ccccc3[nH]c12 gave a remaining activity of 88.7%.
For Cn1c2ccccc2c2c3c(c4c5ccccc5n(CCC#N)c4c21)CNC3=O, the remaining activity was 82.5%.
The remaining activity of OCC(O)CCON=C1C(c2c(O)[nH]c3ccccc23)=Nc2ccccc21 (stereo not shown) is reported as 2.77%.
With Nc1ccc2ncnc(NCCc3ccc(Oc4ccccc4)cc3)c2c1 the remaining activity was 98.7%.
For O=c1c2ccccc2[nH]c(=S)n1CCN1CCC(=C(c2ccc(F)cc2)c2ccc(F)cc2)CC1, the remaining activity was 98.3%.
Oc1ccc(-c2nc(-c3ccncc3)c(-c3ccc(F)cc3)[nH]2)cc1 has a remaining activity of 98%.
The remaining activity of O=C(CCCc1ccc(-c2ccccc2F)cc1)Nc1ccc(O)cc1 is reported as 92.7%.
O=C1NC(=O)C(c2cn(CCCn3ccnc3)c3ccccc23)=C1Nc1ccccc1 gave a remaining activity of 101%.
For Nc1[nH]nc2nc3ccccc3nc12, the remaining activity was 89.3%.
With Nc1ncnc2n[nH]c(Nc3ccc(F)cc3)c12 the remaining activity was 96.9%.
Cc1ccc(Nc2nccc(N(C)c3ccc4c(C)n(C)nc4c3)n2)cc1S(N)(=O)=O has a remaining activity of 96.1%.

Sample 4 — cell line: HH; method: CCK-8
SMILES: CC(C)(C)c1cnc(CSc2cnc(NC(=O)C3CCN(C(=O)CCCSc4cccc5c4C(=O)N(C4CCC(=O)NC4=O)C5=O)CC3)s2)o1 (stereo not shown)
The viability was 102% and 100% (1 nM).
For 100 nM: viability read 97.7% and 99.7%.
It gave 8.71% and 6.62% for viability (1000 nM).
For 50 nM: viability read 100% and 97.5%.

Repeated from above (sample 1):
It gave 81% for remaining binding (Calcium/calmodulin-dependent protein kinase type II subunit beta (CAMK2B, Homo sapiens, UniProt Q13554); cell-free assay, competition with immobilised ligand).
For Cyclin-dependent kinase-like 2 (CDKL2, Homo sapiens, UniProt Q92772); binding, competition with immobilised ligand: remaining binding read 100%.
The remaining binding was 91% (Serine/threonine-protein kinase Nek7 (NEK7, Homo sapiens, UniProt Q8TDX7); cell-free assay, competition with immobilised ligand).
Vascular endothelial growth factor receptor 2 (KDR, Homo sapiens, UniProt P35968); cell-free assay, competition with immobilised ligand — remaining binding: 83%.
It gave 100% for remaining binding (Receptor tyrosine-protein kinase erbB-4 (ERBB4, Homo sapiens, UniProt Q15303); cell-free assay, competition with immobilised ligand).
For Ribosomal protein S6 kinase alpha-3, C-terminal kinase domain (RPS6KA3, Homo sapiens, UniProt P51812); cell-free assay, competition with immobilised ligand: remaining binding read 87%.
